Assay results gathered from unrelated publications.
A part holds a random share of what one study measured. Substitutions count along the parent as printed.
Sequence of UniProt Q9UKE5 (whole entry, looked up): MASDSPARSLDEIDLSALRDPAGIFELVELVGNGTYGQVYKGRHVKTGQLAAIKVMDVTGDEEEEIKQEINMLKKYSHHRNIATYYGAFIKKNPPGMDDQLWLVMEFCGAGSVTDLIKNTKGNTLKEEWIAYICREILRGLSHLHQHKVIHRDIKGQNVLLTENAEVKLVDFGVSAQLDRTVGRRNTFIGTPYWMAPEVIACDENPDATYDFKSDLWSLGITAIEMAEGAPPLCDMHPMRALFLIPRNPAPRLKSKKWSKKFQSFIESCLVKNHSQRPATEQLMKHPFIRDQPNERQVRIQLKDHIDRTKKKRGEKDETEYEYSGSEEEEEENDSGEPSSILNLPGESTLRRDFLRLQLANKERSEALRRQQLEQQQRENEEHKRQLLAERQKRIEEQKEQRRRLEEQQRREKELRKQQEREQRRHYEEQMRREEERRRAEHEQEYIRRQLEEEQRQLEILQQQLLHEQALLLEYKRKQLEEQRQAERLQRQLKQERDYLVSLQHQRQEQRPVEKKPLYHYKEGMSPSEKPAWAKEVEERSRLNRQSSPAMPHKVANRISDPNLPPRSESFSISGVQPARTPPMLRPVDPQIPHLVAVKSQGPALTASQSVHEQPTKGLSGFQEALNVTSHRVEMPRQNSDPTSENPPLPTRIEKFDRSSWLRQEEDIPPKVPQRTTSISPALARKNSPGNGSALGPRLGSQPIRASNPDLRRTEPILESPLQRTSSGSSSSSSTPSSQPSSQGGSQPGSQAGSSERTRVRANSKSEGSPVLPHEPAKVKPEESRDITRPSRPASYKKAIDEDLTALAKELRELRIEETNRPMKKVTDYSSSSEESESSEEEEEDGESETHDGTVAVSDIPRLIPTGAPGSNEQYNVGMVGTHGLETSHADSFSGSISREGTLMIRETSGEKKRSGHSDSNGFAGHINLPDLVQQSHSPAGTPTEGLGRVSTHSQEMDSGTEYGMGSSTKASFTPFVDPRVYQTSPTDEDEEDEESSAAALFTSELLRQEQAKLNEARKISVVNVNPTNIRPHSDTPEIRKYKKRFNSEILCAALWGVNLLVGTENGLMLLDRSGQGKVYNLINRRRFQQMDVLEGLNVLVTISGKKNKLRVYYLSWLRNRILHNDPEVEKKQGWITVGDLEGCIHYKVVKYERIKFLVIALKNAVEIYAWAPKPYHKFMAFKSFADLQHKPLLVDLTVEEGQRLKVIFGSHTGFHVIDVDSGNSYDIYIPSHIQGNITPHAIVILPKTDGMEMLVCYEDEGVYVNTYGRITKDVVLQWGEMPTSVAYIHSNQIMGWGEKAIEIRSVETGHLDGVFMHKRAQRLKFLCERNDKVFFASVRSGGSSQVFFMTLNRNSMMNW
Sequence of UniProt P10721 (whole entry, looked up): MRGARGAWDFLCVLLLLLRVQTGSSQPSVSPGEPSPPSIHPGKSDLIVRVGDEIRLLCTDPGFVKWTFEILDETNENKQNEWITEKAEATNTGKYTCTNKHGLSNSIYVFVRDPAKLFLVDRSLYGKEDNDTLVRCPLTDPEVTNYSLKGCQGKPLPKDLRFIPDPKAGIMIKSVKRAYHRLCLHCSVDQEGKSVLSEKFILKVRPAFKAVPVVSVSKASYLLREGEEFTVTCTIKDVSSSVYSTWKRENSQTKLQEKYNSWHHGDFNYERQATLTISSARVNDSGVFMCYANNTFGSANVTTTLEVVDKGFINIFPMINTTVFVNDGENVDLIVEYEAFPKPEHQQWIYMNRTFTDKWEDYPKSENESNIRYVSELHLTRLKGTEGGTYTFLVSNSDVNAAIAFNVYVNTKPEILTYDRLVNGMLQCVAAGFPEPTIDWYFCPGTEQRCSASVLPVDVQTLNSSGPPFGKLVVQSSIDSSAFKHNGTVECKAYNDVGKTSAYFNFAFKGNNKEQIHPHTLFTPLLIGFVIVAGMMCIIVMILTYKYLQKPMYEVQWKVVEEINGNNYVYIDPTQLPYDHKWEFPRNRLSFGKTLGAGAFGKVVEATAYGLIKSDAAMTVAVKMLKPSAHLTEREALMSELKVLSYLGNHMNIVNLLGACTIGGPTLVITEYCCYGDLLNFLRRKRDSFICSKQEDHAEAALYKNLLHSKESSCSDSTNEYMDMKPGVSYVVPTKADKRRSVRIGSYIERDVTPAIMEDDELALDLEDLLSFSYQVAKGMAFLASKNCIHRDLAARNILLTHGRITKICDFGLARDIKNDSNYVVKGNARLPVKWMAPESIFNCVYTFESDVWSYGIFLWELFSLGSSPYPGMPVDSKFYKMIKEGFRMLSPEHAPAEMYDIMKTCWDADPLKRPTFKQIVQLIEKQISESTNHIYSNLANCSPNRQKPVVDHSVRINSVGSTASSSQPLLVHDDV
Sequence of UniProt Q9H3Y6 (whole entry, looked up): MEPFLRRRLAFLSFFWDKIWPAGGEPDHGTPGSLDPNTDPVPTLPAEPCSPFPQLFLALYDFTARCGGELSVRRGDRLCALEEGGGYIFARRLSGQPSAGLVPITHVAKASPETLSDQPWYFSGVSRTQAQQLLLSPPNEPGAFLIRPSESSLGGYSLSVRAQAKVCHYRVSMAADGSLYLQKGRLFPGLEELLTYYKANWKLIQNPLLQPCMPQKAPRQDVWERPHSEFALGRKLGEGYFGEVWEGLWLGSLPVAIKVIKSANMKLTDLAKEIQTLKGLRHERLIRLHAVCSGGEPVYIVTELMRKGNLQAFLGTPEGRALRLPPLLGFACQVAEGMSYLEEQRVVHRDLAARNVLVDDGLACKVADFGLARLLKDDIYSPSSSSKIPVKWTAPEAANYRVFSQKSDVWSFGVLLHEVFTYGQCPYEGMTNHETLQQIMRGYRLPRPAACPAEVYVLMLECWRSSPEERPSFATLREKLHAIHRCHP
Sequence of UniProt Q16620 (whole entry, looked up): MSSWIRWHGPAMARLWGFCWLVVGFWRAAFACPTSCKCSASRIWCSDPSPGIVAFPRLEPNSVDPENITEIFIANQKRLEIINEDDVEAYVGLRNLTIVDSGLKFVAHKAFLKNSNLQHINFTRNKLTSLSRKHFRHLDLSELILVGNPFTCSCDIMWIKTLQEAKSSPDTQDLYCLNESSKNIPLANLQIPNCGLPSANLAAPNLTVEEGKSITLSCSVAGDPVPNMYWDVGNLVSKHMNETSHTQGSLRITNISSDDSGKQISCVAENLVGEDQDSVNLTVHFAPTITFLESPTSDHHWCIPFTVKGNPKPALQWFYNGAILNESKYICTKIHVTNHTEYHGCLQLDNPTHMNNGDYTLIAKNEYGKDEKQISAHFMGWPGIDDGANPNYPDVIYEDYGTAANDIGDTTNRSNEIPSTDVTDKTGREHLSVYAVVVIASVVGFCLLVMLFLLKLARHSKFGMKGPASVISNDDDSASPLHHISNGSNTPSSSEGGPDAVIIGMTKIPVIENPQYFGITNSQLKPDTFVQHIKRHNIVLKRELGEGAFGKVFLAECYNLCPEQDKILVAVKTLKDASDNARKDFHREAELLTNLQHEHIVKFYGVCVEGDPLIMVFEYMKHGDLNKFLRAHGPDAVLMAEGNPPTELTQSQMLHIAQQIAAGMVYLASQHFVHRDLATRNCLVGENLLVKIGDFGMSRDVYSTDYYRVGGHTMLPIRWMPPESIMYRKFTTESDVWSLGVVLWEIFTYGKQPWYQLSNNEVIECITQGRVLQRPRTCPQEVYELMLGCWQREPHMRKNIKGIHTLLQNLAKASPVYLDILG
Sequence of UniProt Q8TDC3 (whole entry, looked up): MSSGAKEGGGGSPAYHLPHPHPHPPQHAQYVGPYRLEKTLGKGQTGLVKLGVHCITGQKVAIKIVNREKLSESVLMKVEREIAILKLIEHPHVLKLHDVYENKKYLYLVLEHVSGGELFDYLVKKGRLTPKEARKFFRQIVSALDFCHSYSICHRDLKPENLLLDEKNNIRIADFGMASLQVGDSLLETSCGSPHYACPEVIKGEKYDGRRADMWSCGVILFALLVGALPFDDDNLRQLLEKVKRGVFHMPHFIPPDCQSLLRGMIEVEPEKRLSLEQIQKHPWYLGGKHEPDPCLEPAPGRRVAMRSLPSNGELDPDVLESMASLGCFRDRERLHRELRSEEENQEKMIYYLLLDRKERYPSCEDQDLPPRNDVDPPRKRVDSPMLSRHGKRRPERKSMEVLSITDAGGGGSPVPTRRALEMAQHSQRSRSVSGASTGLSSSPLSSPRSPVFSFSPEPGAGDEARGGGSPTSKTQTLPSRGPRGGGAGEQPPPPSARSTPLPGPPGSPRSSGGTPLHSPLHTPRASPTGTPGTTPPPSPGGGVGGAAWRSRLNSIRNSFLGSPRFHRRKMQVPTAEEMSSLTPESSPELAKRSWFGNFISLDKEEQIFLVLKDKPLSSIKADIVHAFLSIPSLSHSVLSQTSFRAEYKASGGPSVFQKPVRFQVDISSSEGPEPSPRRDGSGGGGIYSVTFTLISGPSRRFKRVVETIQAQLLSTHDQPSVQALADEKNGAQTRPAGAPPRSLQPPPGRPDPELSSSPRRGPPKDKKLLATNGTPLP
Sequence of UniProt Q8NG66 (whole entry, looked up): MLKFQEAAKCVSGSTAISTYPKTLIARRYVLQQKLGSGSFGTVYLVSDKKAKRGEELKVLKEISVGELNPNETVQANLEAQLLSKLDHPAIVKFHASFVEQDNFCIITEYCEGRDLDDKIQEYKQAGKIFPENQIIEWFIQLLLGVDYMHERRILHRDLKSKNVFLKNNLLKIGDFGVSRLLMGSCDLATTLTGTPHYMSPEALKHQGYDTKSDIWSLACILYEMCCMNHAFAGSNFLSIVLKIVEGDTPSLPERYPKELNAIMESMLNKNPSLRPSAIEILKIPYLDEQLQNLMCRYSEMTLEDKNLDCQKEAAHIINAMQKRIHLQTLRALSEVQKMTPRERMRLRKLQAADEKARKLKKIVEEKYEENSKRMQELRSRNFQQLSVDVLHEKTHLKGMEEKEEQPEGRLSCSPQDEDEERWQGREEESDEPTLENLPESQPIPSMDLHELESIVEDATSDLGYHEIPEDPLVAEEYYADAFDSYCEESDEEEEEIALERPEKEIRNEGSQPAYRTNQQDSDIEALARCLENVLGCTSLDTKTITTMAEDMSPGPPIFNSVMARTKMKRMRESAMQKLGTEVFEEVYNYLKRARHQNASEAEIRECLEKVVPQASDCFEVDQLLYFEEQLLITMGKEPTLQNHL

Set 1
Target: ATF7, bZIP domain (human)
Technique: DHFR protein complementation
Medium: yeast
Notes: single substitutions, most at no-binding floor
Reference: wild-type JUN-FOS pair
Direction: higher = stronger binding
Starting sequence: JUN, bZIP domain (human); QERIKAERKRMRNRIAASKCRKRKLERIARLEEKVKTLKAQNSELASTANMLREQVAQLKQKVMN; partner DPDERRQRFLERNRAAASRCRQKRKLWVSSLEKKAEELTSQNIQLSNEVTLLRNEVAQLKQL
Substitution	binding fitness [natural log]
S47R	-0.713
L45M	-1.22
L31N	-1.46
A40T	-0.968
E54C	-0.985
L31A	-1.18
L52A	-1.46
A40F	-1.15

Set 2
Target: Histone acetyltransferase KAT6A, winged helix 2, GST fusion (KAT6A, Homo sapiens, UniProt Q92794, residues 85-181)
Technique: protein binding microarray
Form: double-stranded DNA, one strand shown
Medium: in vitro
Tested at: not given
Notes: 8-mer, flanks averaged, mean of 2 arrays, mostly near background
Reference: not given
Direction: higher = stronger binding
Construct (chain): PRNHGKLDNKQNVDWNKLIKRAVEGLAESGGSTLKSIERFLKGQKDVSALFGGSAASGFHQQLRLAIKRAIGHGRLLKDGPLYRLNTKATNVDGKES
Strand	E-score
AGGAAGTG	-0.0522
GCCCTCAC	0.13
CGGGAACC	0.115
CCGGCTGA	0.204
TAGTCTGA	-0.0315
CATAGCAA	0.037
GCACGTAC	-0.112
GACCTCAC	-0.0801

Set 3
Compound: CN(C)C(=O)Cn1cc(-c2nc([C@@](C)(c3ccc(-c4cnc(N)nc4)cc3)C3CC3)no2)cn1
Observed: cell-free assay
Technique: competition with immobilised ligand
Tested at: 1 µM
target	remaining binding [%]
SRMS (Homo sapiens, UniProt Q9H3Y6)	93
EGFR (Homo sapiens, UniProt P00533, L861Q)	100
PLK2 (Homo sapiens, UniProt Q9NYY3)	56
TNIK (Homo sapiens, UniProt Q9UKE5)	100
NTRK2 (Homo sapiens, UniProt Q16620)	81
CAMK2A (Homo sapiens, UniProt Q9UQM7)	96
EPHB1 (Homo sapiens, UniProt P54762)	100
BRSK1 (Homo sapiens, UniProt Q8TDC3)	98
Tyrosine-protein kinase ABL1, non-phosphorylated (ABL1, Homo sapiens, UniProt P00519)	84
PIK3C2B (Homo sapiens, UniProt O00750)	96
KIT (Homo sapiens, UniProt P10721)	87
EGFR (Homo sapiens, UniProt P00533, G719S)	98
NEK11 (Homo sapiens, UniProt Q8NG66)	100
PIK3CD (Homo sapiens, UniProt O00329)	93
YES1 (Homo sapiens, UniProt P07947)	94
Tyrosine-protein kinase ABL1, phosphorylated (ABL1, Homo sapiens, UniProt P00519, M351T)	80
NLK (Homo sapiens, UniProt Q9UBE8)	95
MAP3K11 (Homo sapiens, UniProt Q16584)	77

Set 4
Cell line: mouse MPNST tumor cells
Technique: high-content nuclear imaging
Item: cell number
Tested at: 10 µM
Time: 12 h
Notes: mean of 2 replicates
Reference: plate mean
Direction: higher = more cells
SMILES	nuclei count [z-score]
O=C(OCC(O)CO)c1ccccc1Nc1ccnc2cc(Cl)ccc12 (stereo not shown)	1.9
CC1(C)CCC(C)(C)c2cc(C(O)C(=O)Nc3ccc(C(=O)O)cc3F)ccc21 (stereo not shown)	-1.13
CCCOc1ccc2[nH]c(NC(=O)OC)nc2c1	-1.15

Single results of other studies
SMILES	tested on	assay	system	setting	scale	quantity	value
CC(NC(C)c1nc(N)nc(N(C)C)n1)c1ccccc1 (stereo not shown)			mouse, microsomes or S9	2 µM, 0.5 h		remaining compound	23.5%
CC(C)C[C@@H]1NC(=O)[C@H](CC(C)C)NC(=O)[C@@H](CC(C)C)NC(=O)[C@H](C(C)C)NC(=O)[C@@H](CCC(=O)N2CCCC2)NC(=O)[C@H](Cc2cscn2)NC(=O)[C@H](C)NC1=O		PRP chromatography estimate	1,9-decadiene/PBS	pH 7.4		logD	-1.95
N#CC(=C(N)Sc1ccc(N)cc1)c1ccccc1C(F)(F)F	panel of 300 human kinases			0.5 µM	higher = more selective	Gini score	0.74
